Results gathered from unrelated publications.
Each line is one published result; not all experiments were run side by side. Values joined by “and” are separate records of one study, mostly repeats; a detail may differ. ± marks the error that the study gave.
ALB: Albumin (ALB, Homo sapiens, UniProt P02768)

[2H]c1c([2H])c([C@]2([2H])CCCN2C(=O)C(C)(C)Oc2ccc3cn[nH]c3c2)c([2H])c([2H])c1C([2H])([2H])[2H]
remaining binding (PTK6 (Homo sapiens, UniProt Q13882); KINOMEscan; 1 µM; relative to: DMSO control): 71%

COc1cc(Nc2ncc(F)c(Nc3ccc4c(n3)NC(=O)C(C)(C)O4)n2)cc(OC)c1OC
inhibition (TNK1 (Homo sapiens, UniProt Q13470); KINOMEscan; 10 µM): 100%

COc1cc(-c2[o+]c3cc(O)cc(O)c3cc2O[C@@H]2O[C@H](CO)[C@@H](O)[C@H](O)[C@H]2O)cc(OC)c1O
Gibbs free energy (ALB; binding, fluorescence quenching; 40 °C): -5.71 kcal/mol

Oc1ccc(/C=C/c2cc(O)cc(O)c2)cc1
∆G (O-methyltransferase (Sorghum bicolor, UniProt A0A1B6PFV1, W279A); isothermal titration calorimetry; with: SFG): -6.22 kcal/mol

Cc1ccc(C(=O)CCl)o1
labelling (UCHL1 (Homo sapiens, UniProt P09936); covalent, intact protein LC-MS; 12.5 µM): 2.63%

CCCCCCC(=O)O
melting temperature change (ALB; differential scanning calorimetry; concentration not given, second transition, HSA 15 µM; relative to: HSA alone): -2.5 °C

O=C[C@H](O)COP(=O)(O)O
Km (Triosephosphate isomerase (Leishmania mexicana, UniProt P48499, E66Q)): 460 µM

O=C(Nc1cccnn1)N1CCC(=Cc2cccc(Oc3ccc(C(F)(F)F)cn3)c2)CC1
inhibition (HIPK2 (Homo sapiens, UniProt Q9H2X6); kinase activity, inhibitor; 50 µM, with: myelin basic protein substrate): -9%

COc1ccc(N2C(=O)N(c3c(C)cccc3Cl)Cc3cnc(Nc4ccc(C5CCN(C)CC5)cc4OC)nc32)nc1
inhibition (STK4 (Homo sapiens, UniProt Q13043); kinase activity, inhibitor; 0.5 µM, MST1): 10%

C[N+]1(C)CCN(c2ccc(C#N)cc2)CC1.[I-]
ACh response (Nicotinic acetylcholine receptor alpha1/beta1/epsilon/delta (Mus musculus, UniProt P02716+P04756+P09690+P20782); ion current, inhibitor, two-electrode voltage clamp; Xenopus oocytes; 30 µM, after co-application, unit not given, with: ACh 30 µM; relative to: ACh alone): 0.594 ± 0.222

CN1CCN(c2cc(-c3ccncc3)c(-c3ccc4ccccc4c3)nn2)CC1
activation (ADORA2A (Homo sapiens, UniProt P29274); agonist, FLIPR calcium; 12.5 µM): -1.7%

O=C(c1ccc(Cl)cc1)N1CCN2C(=O)N(OC(=O)N3CCOc4ccccc43)C(=O)C2C1 (centres unmarked)
probe labelling ratio (NOTUM (Homo sapiens, UniProt Q6P988); MS-based ABPP; SW-620 conditioned medium; 10 µM, median ratio; relative to: compound over DMSO): 0.51

CC(C)[C@@H](O)CC[C@@H](C)[C@H]1CC[C@H]2[C@@H]3CC=C4C[C@@H](O)CC[C@]4(C)[C@H]3CC[C@]12C
current response (Glutamate NMDA receptor; GRIN1/GRIN2B (GRIN1/GRIN2B, Homo sapiens, UniProt Q05586+Q13224, L567A); positive allosteric modulator, two-electrode voltage clamp; Xenopus oocytes expressing GluN2B-L567A; 10 µM, 0.02% cremophor, with: 100 µM glutamate and glycine; relative to: without compound): 449 ± 23%

Nc1ncnc2c1ncn2[C@@H]1O[C@H](COP(=O)(O)OP(=O)(O)O)[C@@H](O)[C@H]1O
association constant (Cell cycle histidine kinase CckA, cytoplasmic region (Caulobacter vibrioides, UniProt Q9X688); binding, ITC; with: without c-di-GMP): 1870 ± 221 M⁻¹

C[C@H]1CN(c2n[nH]c3nc(N[C@H]4CC[C@H](NS(=O)(=O)CCC(F)(F)F)CC4)ncc23)CCO1
relative abundance (NEK1 (Homo sapiens, UniProt Q96PY6); inhibitor, Kinobeads competition profiling; 0.032 µM; relative to: vehicle): 0.99

O=C(Nc1cnccc1Cl)N1CCN(Cc2ccc3c(c2)OC(F)(F)O3)CC1
inhibition (SIGMAR1 (Homo sapiens, UniProt Q99720); radioligand binding, inhibitor; 50 µM, human, with: [3H]haloperidol): 65%

CC[C@@H](C)[C@@H](NC(=O)[C@@H](Cc1ccc(O)cc1)NC(=O)[C@H]1CCCN1C(=O)[C@@H](CCCNC(=N)N)NC(=O)[C@H](N)Cc1c[nH]cn1)C(=O)N[C@H](C)C(=O)N[C@H](Cc1c[nH]cn1)C(=O)N[C@H](CCCNC(=N)N)C(=O)N[C@H](CCCCNC(=O)c1cccc(S(=O)(=O)F)c1)C(=O)N[C@H](Cc1ccc(O)cc1)C(=O)N[C@H](CO)C(=O)N[C@H](Cc1ccccc1)C(N)=O
surface expression (Transferrin receptor protein 1 (Tfrc, Mus musculus, UniProt Q62351); flow cytometry; DC2.4; 48 h, pH 7.4, unit not given; relative to: 0 h): 0.51 and 0.413
